Measurements of several laboratories.
A part holds a random share of what one study measured.

Sample 1
Target: PABPC1L2, full length, GST fusion (mouse, UniProt A0ABA7IW68)
Method: RNAcompete
Molecule type: RNA
Sample: in vitro
Tested at: 20 nM
Notes: 7-mer, probes averaged, single round
Relative to: mean of 7-mers
Direction: higher = stronger binding
Residues (chain): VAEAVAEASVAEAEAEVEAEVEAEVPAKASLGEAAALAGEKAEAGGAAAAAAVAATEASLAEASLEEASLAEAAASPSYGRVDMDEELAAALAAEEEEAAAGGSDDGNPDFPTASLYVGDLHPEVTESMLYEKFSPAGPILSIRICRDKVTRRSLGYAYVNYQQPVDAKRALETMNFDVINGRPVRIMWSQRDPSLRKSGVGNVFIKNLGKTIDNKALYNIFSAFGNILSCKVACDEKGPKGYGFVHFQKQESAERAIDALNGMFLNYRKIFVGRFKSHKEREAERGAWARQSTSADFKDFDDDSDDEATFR
Strand | 7-mer Z-score
CGACGAC | -0.0301
GCGUCUG | -0.34
AGCCAAA | 0.764
CCUACAC | -0.309
UCAGCUC | -0.306
GCGAGUC | -0.333
UUGAAAU | -0.193
CGUCGAG | -0.258
UGUCCAA | -0.0863
UACCAAC | -0.0699
CAGCCCU | -0.324
UCCGGCC | -0.49
CAAGCUA | -0.142
CUUAGCG | -0.186
CAACUCC | -0.26
GUGCAAC | -0.0935
AAAGAGA | 1.87
AAUGCGA | 0.234

Sample 2
Organism: Saccharomyces cerevisiae
Observed: binding
Method: yeast competitive growth sequencing
Molecule type: peptide
Strain: cyclin B3-Cln2 fusion strain
Notes: peptide tiling library
Direction: direction not given
Sequence | enrichment score
KPKPVKPVTFSTGIKM | 0.878
PKNAKRNLSSEFAN | -0.268
PKRAKRKLYTSEISSP | -1.37
VLVRTSACRSLFGPVD | -0.68
TARRIFQEPTEPKTKA | -0.803
SMTDFYHSKRRLIFSK | -1.99
IVLICAKRSLCAAFSV | -1.71
PAKRRLELGE | 0.421
PARRRLRLSVDEVSSP | -0.719
SSEVARHLLFQSHM | -1.05

Sample 3
Target: Histone acetyltransferase KAT6A, winged helix 1, GST fusion (KAT6A, Homo sapiens, UniProt Q92794, residues 1-85)
Method: protein binding microarray
Molecule type: double-stranded DNA, one strand shown
Sample: in vitro
Tested at: not given
Notes: 8-mer, flanks averaged, mean of 2 arrays, mostly near background
Relative to: not given
Direction: higher = stronger binding
Residues (chain): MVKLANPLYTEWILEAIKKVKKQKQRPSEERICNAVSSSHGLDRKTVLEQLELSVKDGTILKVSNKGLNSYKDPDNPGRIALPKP
Strand | E-score
CTACCTCC | -0.108
AGCTACTG | -0.102
ATCACTTA | -0.126
GAACCACA | -0.165
ACGGGCAG | 0.14
ATGCGTTA | 0.103
ACCCTGGG | -0.135
ATTCTATA | -0.0123
ATTAATGC | 0.0336
ATAGCAGA | -0.261
ATGAATCG | 0.0335
AACCGGGG | 0.243
ACAGCACT | -0.109
GTCGTAAA | -0.0278
ACGTCGGC | 0.299
CCGGCCGC | 0.443
AATTCTAC | -0.198
CACCTAAA | -0.221
AGACCAGG | -0.0995
ATACCGTC | 0.316
CCGGAGGC | 0.0353
AAGCAGCC | -0.0465
GGCAAGAA | -0.112
CTACTAGA | -0.14
GTCACCCA | -0.131

Sample 4
Target: Interferon regulatory factor 5, full length, phosphomimetic (IRF5, Homo sapiens, UniProt Q13568-2, residues 1-514, S451D/S453D/S456D/S462D)
Method: protein-binding microarray
Molecule type: double-stranded DNA, one strand shown
Sample: in vitro
Tested at: 940 nM top
Notes: 60-bp whole probe
Together with: salmon DNA 0.4 mg/ml
Relative to: random background probes
Direction: higher = stronger binding
Shared flanks, not repeated: GCCTAGCAC … GTCTTGATTCGCTTGACGCTGCTG
Strand | fitted relative affinity
TTAGGTCTCGGTTTCGGTTCGTGCTAG | 9.49 z-score
TTAGCACTGGGGTTTCGGTTAGTGCTA | 5.82 z-score
TTAGGACTGCTTATCCTTAAGTGCTAG | -0.212 z-score
TTCGGTTCCGGTTTCGGTTAGTGCTAG | 10.2 z-score
TAATATCTAAGATTCTAGCCGTGCTAG | -0.521 z-score
TTAGGACTGCTTCTCCTTAAGTGCTAG | -0.0159 z-score
TTTACTTTCTATGTCTGTTTGTGCTAG | 3.69 z-score
TCTCATTCCAATTCTTTTTATGTGCTA | 7 z-score
TAAGGTATCGACTTTCGGTTAGTGCTA | 4.68 z-score
TTAGGTTTCGATTCCGGTTAGTGCTAG | 13.4 z-score
TCATCTTCCCCTCTCTTACTGTGCTAG | 1.17 z-score
TTAGATCTCAGTTTCGAGTAGTGCTAG | 4.54 z-score
TTAGGTTTTCTTCTCCTTTAGTGCTAG | 1.27 z-score
TTAGAACTGAGATTCGATTAGTGCTAG | 0.118 z-score
TACTACATATCACCTCAATCGTGCTAG | 1.17 z-score
TTAGGTTTCGGTATCTGTTAGTGCTAG | 14.2 z-score
TTAGGTATCGCCACTGGGTTAGTGCTA | 2.46 z-score
GACGCTATCGGTTTCGGGACGTGCTAG | 4.05 z-score

Sample 5
Target: Fragile X messenger ribonucleoprotein 1, C-terminal low-complexity region (Fmr1, Mus musculus, UniProt P35922)
Method: RNA Bind-n-Seq
Molecule type: RNA
Sample: in vitro
Tested at: 200 nM
Notes: whole 134-nt RNA, ends assumed
Together with: 150 mM KCl
Relative to: input library
Direction: higher = stronger binding
Shared flanks, not repeated: GGGAGUUCUACAGUCCGACGAUC … UGGAAUUCUCGGGUGUCAAGG
Strand | log2 enrichment
AAGUCCUGUGCUACACAUCGUAUGUACCGAAUCGGGGUGGGGAGGGGAAAAAGGGGAAAGUAUUAUGUUACGCCGUUCGGAUCUGCACUU | 0.821
GCAGGAAGAAAAAACAAAUGGAAAUGCUUCGGAUAGUGGCAGGGGUGGGGGUUGCUAAGGAAAGGGUGGGAUGGGAGUGGGUAAAGAGUU | 0.194
UGGGAGGUGGAGUUUGUUUAUUUUUUUAGCUCAUUUCCAGGGGUGGGAAUUUUUUUUUAAUAUGUGUCAUGAAUAAAGUUGUUUUUGAAA | 0.166
ACCAUGCAAAAGGGCAUCUUUGGGAAGUGGGGCAAGGGGGGGAUAGGGAGGGGGGUAACACUUUGGGAACAGGUGGUCCCAGGUCGUUUC | 0.796
CACAGACAACACGCACCCACACAGACACAGAGGGAAGGUGUUGGGAUGGGGACAGGGUGCACAGCAGGGCGGGGUAGGACCCCAGCCCCU | 1.03
UCCUGUGCUACACAUCGUAUGUACCGAAUCGGGGAAAGGGGAAAAAGGGGAAAAAGGGGAAAGUAUUAUGUUACGCCGUUCGGAUCUGCA | 0.298
CACAGACAACACGCACCCACACAGACACAGAGGGAAGGGGUUGGGAUGGGGACAGGGUGCAAAACAGGGCGGGGUAGGACCCCAGCCCCU | 1.17
CACAGACAACACGGACCCACACAGACACAGAGGGAAGGGGUUGGGAUGGGGACAGGGUGCACAGCAGGGCGGGGUAGGACCCCAGCCCCU | 1.49
UAACUUUAGAGGAGGAUCUGAUGGAUAUGGCAGUGGACGUGGAUUUGGGGAUAGCUAUAAUGGGUAUGGAGGAGGACCUGGAGGUGGCAA | 0.419
CCUCAAGUCCUGUGCUACACAUCGUAUGUACCGAAUCGGGCGGGCGGGGCGGGAAAGUAUUAUGUUACGCCGUUCGGAUCUGCACUUCCA | 1.28
GCAGGAAGUAAAAACAAAUGGAAAUGCUUCGGAUAGUGGCAGGGGUGGGGGUUGCUAGGGAAAGGGUGGGAUGGGAGUGGGUAAAGAGUU | 0.212
UUCCCCUGGAGGGCGCCUCCAUCCUUGGAGGCCUAGUGCCGUCGGAGAGAGAGCGGGAGCCGCGGACAGAGACGCGUGCGCAAUUCGGAG | -1.17
UAACUUUUGAGGAGGAUCUGAUGGAUAUGGCAGUGGACGUGGAUUUGGGGAUGGCUAUAAUGGGUAUGGAGGAGGACCUGGAGGUGGCAA | 0.419
UCAAGUCCUGUGCUACACAUCGUAUGUACCGAAUCGGAGGAAAGGUUUUUUUGGAAAGUAUUAUGUUACGCCGUUCGGAUCUGCACUUCC | -0.74

Sample 6
Target: RNA binding protein fox-1 homolog 2, RRM domain, GST-SBP tag (RBFOX2, Homo sapiens, UniProt O43251-10, residues 100-194)
Method: RNA Bind-n-Seq
Molecule type: RNA
Sample: in vitro
Tested at: 365 nM
Notes: natural RNA segment, single round, ends assumed
Relative to: no-protein control
Direction: higher = stronger binding
Shared flanks, not repeated: GGGAGUUCUACAGUCCGACGAUC … UGGAAUUCUCGGGUGCCAA
Target sequence (chain): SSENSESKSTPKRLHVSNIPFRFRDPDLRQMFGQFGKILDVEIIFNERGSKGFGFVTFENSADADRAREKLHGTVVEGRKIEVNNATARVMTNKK
Strand | RBNS enrichment (R)
UAUCUGUCUGGACAUAGUUGUGUUCCUCUAAAUUGGAUGUACUAAAUAGUUUACAAGUUAUCCUACUCCACAGAUUUUGGUAUGUUUGUUAUCUGGACAUGAUUUUGCUA | 0.394
AAUAUGCCUUCCUGCUGAGCUGAAGUCUUUCAUUCCACUUCACUGGGGGAGCAGCUGAGGCUUGGGGCCUUGCUCCCUGGGACAUUCUCUCCAUCUUUUGGUGCAUUGGC | 0.623
UUAGCCUGUCUGUCACACGACGGAAUGGAUACUGGGCCCGGGGACCACUUUCAUACUCACGUCCUCAUCCUUGGAUACCCAGGGGAGGGCGAACCGUUUUCGCUCGUGUG | 0.265
UGUCAAAGCCGAGAGACCAGCCUGCGUCCUAAAGUUUGCUUUAGAGAGUAGGAAUGUCGGGGUUUCCAGUUAGAAAACCUUUAUUUUUGGAAACGGAAUAAAAAUCUCUU | 0.313
UGUUCCUCACGUGUGGGACAGGACACAGAGCUGACUGAGCGUGGGACACUCCACAGCCUUCUCAUGACUUGUGAAGGAGGUUCACAGGAACGAGGGGUAUGUUUUAGAGC | 0.437
ACCUGAAAUUGUCCUUUGGACUCCUAGACCCUUCUUCCCCGAUGUGUUUUGUAUGUGGUUAUAAAAUUGUAGACUUUUGUGAUUUUGCCAAAGUUGUAGCUAAAUAUUUA | 0.585
UAUCUCCUCUGCCUGUGACUUGGGUGGGACUGUCAUUGUGGGUAGCCAUUUAUUGAAUUCAACUUUUUGCCAAGGAAGCUUAUCUCAAGGGAAAUGCAGUUUUUUAAUAG | 3.51
AUAUGAGAAUAUCUAUCUGGCAUUAUCUAUCUGCCAAUCUCACUGUAAUAAAUUGAUUAUUUUGCCUAAACUGGUUCAUAUCUUUUUCUUUGUUUUGGUCACUUUUUAAU | 0.648
AAAUACUUGUGUUUCUAUUAAAUAUACACUACUAAAUACAUGUUAUGUGACUAGUAUUUAUCCUUUACUUCUGUGUUUUCUUAGGAUGUACACUUUUAGAGUUAUAGUGC | 0.352
CCUGUCCCCCCCGGCCAGCCUCCCCAACUUGAUGUUUGUGUUUUGUUUGGGGGGAUAUUUUUCAUAAUUAUUUAAAAGACAGGCCGGGCGCGGUGGCUCACGUCUGUAAU | 0.395
UGCUGCAGAUAGGAUCCUUCCCUUGUCUCCAUUCCUCUCCUCCCAAAGGGAGAGGGGCAAAUGGUUUAGGUACAGGCUUUGGCUAUUAAUGUCAGGCUUGGUGGUGGGAG | 0.3
GUGUUAUCUUUAUAUGUCAAACUGGUUGAACACUGUAAUGAGAAUAAACUGCACAGAGUUUAUUCUGACUUAUUUCUCAUUUUGUUUGGUUCAGCCCUUGUGUGAUGAAG | 0.665
